# Published values collected from several papers.
# Numbered parts are unrelated; each lists some results of a single study. Substitutions count along the parent as printed.

# Block 1 — method: DNA-protein interaction ELISA; form: double-stranded DNA, one strand shown; matrix: in vitro, bacterial lysate; concentration: not given; notes: whole dsDNA probe, crude lysate protein; reference: highest signal in screen; direction: higher = stronger binding
# Target: Probable WRKY transcription factor 50, DNA-binding domain (WRKY50, Arabidopsis thaliana, UniProt Q8VWQ5, residues 99-173)
# Target sequence (chain): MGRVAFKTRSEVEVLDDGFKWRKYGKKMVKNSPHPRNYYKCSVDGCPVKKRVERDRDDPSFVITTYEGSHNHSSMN
Oligonucleotide,relative absorbance
AAAAAATTGGCACACATGATCTCGGGAAAA,8.37 % of maximum
AAAAAATAATATCGATACTCATGCCCAAAA,17.7 % of maximum
AAAAAACTACCTCTACTCTAGCCTTAAAAA,15.2 % of maximum
AAAAAAGGCTGTGGCCAATGTTCGTAAAAA,12.3 % of maximum
AAAAAAGGAAAACGAGTTCATCTGGTAAAA,20.5 % of maximum
AAAAAACTGCTAATCGGTGACCCGATAAAA,22.4 % of maximum
AAAAAATTCTTACTTTTGTCTTTACTAAAA,62.3 % of maximum
AAAAAATGCAGACCTTCAGCTGGGTAAAAA,16.3 % of maximum
AAAAAATTTGTACTTTAAGTTTACATAAAA,13.7 % of maximum
AAAAAAACTTTCTATTCTGGATAAGTAAAA,44.7 % of maximum
AAAAAATGGATCTTTACTTTAGGCCAAAAA,49 % of maximum
AAAAAATAGACCCTGACCCACCATTGAAAA,23.9 % of maximum
AAAAAATATATTTTCAGCTTTAATCTAAAA,25.6 % of maximum
AAAAAACCGCTTACATTGCGTTGTCGAAAA,10.9 % of maximum

# Block 2 — method: aptamer microarray, sandwich; form: DNA with 2'F-ANA; matrix: in vitro; concentration: 200 nM; added: Cy3 exosite-II aptamer, 400 nM; direction: higher = stronger binding; oligonucleotide: GGTTGGTGTGGTTGG
# Target: Prothrombin, mature alpha-thrombin (F2, Homo sapiens, UniProt P00734)
# Notes: whole 15-mer aptamer, many near background
Modification,mean fluorescence intensity [a.u.]
2'F-ANA at 3 6 8 9 11 12 13 15,879
2'F-ANA at 1 2 5 10 11 12 14,64.5
2'F-ANA at 3 4 5 7 9 10 11,56.2
2'F-ANA at 2 3 4 9 11 14 15,263
2'F-ANA at 1 2 3 5 6 9 10 12,52.3
2'F-ANA at 5 6 9 11 13 14,53.9
2'F-ANA at 1 3 4 6,215
2'F-ANA at 1 2 3 4 5 6 8 9 10 11 15,47.8
2'F-ANA at 1 2 3 4 6 7 8 9 11 13,141
2'F-ANA at 2 3 4 7 8 9 12 14 15,322
2'F-ANA at 5 7 8 9 10 11 12 14 15,89.8
2'F-ANA at 2 3 6 7 10 11 12 13,338
2'F-ANA at 1 2 5 8 9 10 11 12 13 14 15,105
2'F-ANA at 1 5 12 14 15,53.7
2'F-ANA at 8 10 15,199
2'F-ANA at 1 2 3 4 5 8 10 12,49.6
2'F-ANA at 5 6 8 12 13 14,75.1
2'F-ANA at 1 2 3 5 6 7 8 9 11,61.2
2'F-ANA at 1 4 5 8 9 10 11 13 14 15,68.5
2'F-ANA at 2 3 5 7 9 12 14 15,61.7
2'F-ANA at 3 5 6 7 8 10 12 13 14,43.1
2'F-ANA at 2 3 4 5 6 8 9 15,90.8

# Block 3 — method: RNA Bind-n-Seq; form: RNA; matrix: in vitro; concentration: 365 nM; reference: no-protein control; direction: higher = stronger binding
# Target: RNA binding protein fox-1 homolog 2, RRM domain, GST-SBP tag (RBFOX2, Homo sapiens, UniProt O43251-10, residues 100-194)
# Notes: natural RNA segment, single round, ends assumed
# Constant ends, left off below: GGGAGUUCUACAGUCCGACGAUC … UGGAAUUCUCGGGUGCCAA
# Construct (chain): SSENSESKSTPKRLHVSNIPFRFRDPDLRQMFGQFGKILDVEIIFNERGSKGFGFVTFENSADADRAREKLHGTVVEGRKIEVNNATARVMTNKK
Oligonucleotide,RBNS enrichment (R)
AAGGUUUCUUAUGCCCAAGCUUGAAAAAUGAUUUCCCAGUAGACAAGAGGCGGCUACCUAUCCUACAGUUACGGUAUUUAUUUACAUAAGAAGAUCUUACAGGAGUUCUU,0.651
CCCUGGUCUUGGCGCUUCCCUGAUGGACAGAGCUCAAGUUCCAUUUAUAUUAACCGCCACCUGUGGAUUUUGCAGUAAUUGCUAACACAUGCAGUUUUAAUGGGAAGUGG,0.275
CAGUGAAGGUCUCAGACCAAGGGGUACAAGAACUCCAGCACACCCAGAGAUGGUCAUGCACAGCCUCUUGAGACGCAUGUCACAAUGUCCUAUGACAGAGAAUGACUUAG,1.7
CCUUCUUGUUGCUGUUAGAAUAGUGCUAUAUAUCAGGUAUGUGACCAUUUAUUUCAGAAGGCUGAACAUAAGAGGUUUCUACUCAGCAAUACUUAGAUGUCUAACUGUUU,0.416
CGUUGGCCACUCCGAGAGGUGGGCCAGUCUGUGGAUCAGAGAUGCACCACCAAGCCAAGGGAACCUGUGUCCGGUAUUCGAUACUGCGACUUUCUGCCUGGAGUGUAUGA,0.32
AUUCUGACGCCUACUGGCUCUAUGUAAUUAUUAAGUCACAUUGACCUCUGUGUAGGGCUGUUUUCCAGGAAUUAGGAAGAAAACCCAAAGAAAAUAUUGCACAAAGGUUU,0.524
AGGAAACGCUGCAGGGGCCACAGGCACAGGCUGAUAUUUAAAGAUCUUUGCUUGCAGCCCUCCGUCCUGCUGAAAACCCCCAUAAGCCAGUGAACACAGAGCAGCUAGAG,0.569
UUUCUGACACUAGAAUGCAACAGAUUGGAAACUUUUUGUGUAAAAUGAAAAAAACAAAGUGCUGGUUUUUUUUUUUUUUCUGUGAAGGUCUUCAGUGUUUUGCUUGUUCA,0.948
UCGUCUUUGUUUCAGUUAAGCUCAAUGGCGAACAUGGGAACCACCUUUCGCCUUCCCUGGGGGAGAAACCCUCUUGGCUGAUGGCUUUUCCCCGGAAUUAUCAAACAGCC,0.3
AUUCUUUAAAAGCCAAGGUGCCCAUAUGGAAAAAGGGCUUGACUUAAACCUGUGAUAAGAUGUCUGCAAUAGACUCAGCCUUCUGUGACUAACUCCUAACUAACCAGCUC,0.441
CUGCCUCUGCCUUCUGGACACCGUUUCCUCUCCGCUGCUUCAGAGAGCUUUGCCUCGCCUCCGCCUGCGCUCCCCUCCAGGGUCCUUCUGCUGGCUGCGGACUCGGCCCA,0.598
GUCUCUUCCUUUAGCUGACAAGGACACUCCUGAGGUCUUUGUUCUCACUGUAUUCUUUUUAUCCUGGGGCCACAGUUCUUGAUUAUUCCUCUUGUGGUUAAAGACUGAAU,0.647

# Block 4 — method: protein binding microarray; form: double-stranded DNA, one strand shown; matrix: in vitro; concentration: not given; reference: not given; direction: higher = stronger binding
# Target: Histone acetyltransferase KAT6A, winged helix 1, GST fusion (KAT6A, Homo sapiens, UniProt Q92794, residues 1-85)
# Notes: 8-mer, flanks averaged, mean of 2 arrays, mostly near background
# Target sequence (chain): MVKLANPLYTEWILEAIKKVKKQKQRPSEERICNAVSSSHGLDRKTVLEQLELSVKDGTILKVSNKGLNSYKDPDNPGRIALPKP
Oligonucleotide,E-score
CGGGTAGC,0.285
ATGGTCCG,0.159
CGGGGGTA,0.184
AGATCACC,-0.0741
ACGCCGGG,0.396
GTAAGGCA,-0.145
AGTGAGGG,-0.0736
ACTTTCGG,-0.171
ATGTCTTG,-0.0141
CGTGGGTA,0.0852
GAACGTGA,-0.0593
CTTCATAA,-0.0386
TAGTTTCA,-0.0512
ACCTGGAT,-0.251
TATATTGA,-0.0492
CAAGGAGC,-0.0712
CAGACACA,-0.292
GAAGGCTA,-0.112
CTTCAATA,-0.222
AACCAACG,-0.137
CCTTGCTC,-0.15
CGGTTTAC,0.194
AGGCGCTG,0.299
CTATAAAC,-0.029
AACGGTAG,0.0593

# Block 5 — target: CCND3, cyclin fold, Cln2 fusion (human); method: yeast growth competition, sequencing; matrix: yeast; notes: weak parent motif; reference: not given; direction: higher = stronger binding
# Starting sequence: RBL2 docking peptide (human); STTRRRLFVENDS
Change,normalised enrichment score
L7H,0.111
S13A,0.0617
F8L,0.107
L7G,0.04
D12T,0.0763
R4Y,0.238
T2S,0.0788
R5I,0.0946
R4V,0.0991
R5C,0.1
R5T,0.221
T2D,0.0475
N11S,0.185
T3E,0.0946
L7V,0.0839
S1Q,0.128
V9C,0.228
D12C,0.066

# Block 6 — method: universal PBM; form: double-stranded DNA, one strand shown; matrix: in vitro; concentration: 600 nM; direction: higher = stronger binding
# Target: Sal-like protein 4, full length isoform A (SALL4, Homo sapiens, UniProt Q9UJQ4, residues 1-1053)
# Chain of UniProt Q9UJQ4 (whole entry, looked up): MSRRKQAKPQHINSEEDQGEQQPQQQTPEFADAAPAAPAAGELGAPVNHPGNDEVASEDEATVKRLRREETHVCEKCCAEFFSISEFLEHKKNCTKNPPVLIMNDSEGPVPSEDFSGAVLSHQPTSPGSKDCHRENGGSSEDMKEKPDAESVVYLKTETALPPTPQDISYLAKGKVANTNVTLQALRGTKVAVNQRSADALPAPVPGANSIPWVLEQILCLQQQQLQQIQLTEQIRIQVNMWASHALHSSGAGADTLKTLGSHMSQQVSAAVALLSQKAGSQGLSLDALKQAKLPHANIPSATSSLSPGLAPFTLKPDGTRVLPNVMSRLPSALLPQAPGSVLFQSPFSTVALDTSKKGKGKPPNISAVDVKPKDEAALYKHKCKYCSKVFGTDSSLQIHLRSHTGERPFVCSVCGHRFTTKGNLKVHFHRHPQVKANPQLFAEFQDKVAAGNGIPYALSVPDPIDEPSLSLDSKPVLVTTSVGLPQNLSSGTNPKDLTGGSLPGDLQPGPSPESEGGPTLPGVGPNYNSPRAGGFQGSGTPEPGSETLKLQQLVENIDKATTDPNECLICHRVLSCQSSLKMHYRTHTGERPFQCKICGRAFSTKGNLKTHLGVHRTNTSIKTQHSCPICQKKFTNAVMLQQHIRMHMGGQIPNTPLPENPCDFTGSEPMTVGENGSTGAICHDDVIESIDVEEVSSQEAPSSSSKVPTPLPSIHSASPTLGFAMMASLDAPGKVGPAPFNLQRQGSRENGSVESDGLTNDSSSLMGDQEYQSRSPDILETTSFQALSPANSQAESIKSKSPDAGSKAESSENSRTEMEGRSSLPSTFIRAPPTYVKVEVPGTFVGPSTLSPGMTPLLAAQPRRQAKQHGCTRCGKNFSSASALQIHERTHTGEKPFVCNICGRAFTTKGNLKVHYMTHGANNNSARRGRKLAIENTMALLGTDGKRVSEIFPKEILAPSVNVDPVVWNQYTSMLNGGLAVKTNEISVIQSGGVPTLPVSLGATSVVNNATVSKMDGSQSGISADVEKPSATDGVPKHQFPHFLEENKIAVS
# Notes: 8-mer, flanks averaged, mean of replicates
Oligonucleotide,E-score
CCAAGGAC,-0.131
AATTGCGT,0.134
AGCATAGA,0.0224
CAAACCTG,-0.0245
GATCCCCC,-0.309
GTGCCCTA,-0.216
CGCGAGCA,-0.235
ACTCGCCT,-0.175
GAGGGCGC,-0.332
CCGCCCAC,-0.249
CACCAAGG,-0.158
AGTCCTAT,0.134
AAGTCCAT,-0.0648
GATATAAA,0.277
GTGTCCGA,-0.119
AAAGTGCA,0.0742
AAACAATG,0.216
ATTGACCA,0.152
TACAAAAA,0.343
AGCCAGTG,-0.298
GACCATGA,-0.0193
ATATTGGA,0.273
ATCCAAGA,0.142
CACATAGC,-0.121
CATACGCA,0.148

# Mixed results
Substance,target,assay,system,setting,how to read,measurement,result
"PhoQ, residues 284 288 289 292 302 303 SACGEM","PhoP, residues 12 14 15 18 19 NMSSL (Escherichia coli, UniProt P23836)","Sort-seq, measured: YFP reporter",E. coli,"PhoQ-PhoP variant library, added: 10 µM Mg2+","reference: high Mg2+ state, higher = stronger signaling",fold induction,3.37

# A few entries again (block 4):
Oligonucleotide,E-score
CGGGTAGC,0.285
ACCTGGAT,-0.251
GAACGTGA,-0.0593
CAAGGAGC,-0.0712
ACTTTCGG,-0.171
CAGACACA,-0.292
AGATCACC,-0.0741
ATGTCTTG,-0.0141
